Assay results collected from several papers.
± marks the error that the study gave.

SMILES | system | conditions | tissue uptake [%ID/g]
N=C(N)NCCC[C@@H]1NC(=O)[C@H](CCCCNC(=O)CCOCCOCCOCCOCCNC(=O)CC[C@H](NC(=O)CCOCCOCCOCCOCCNC(=O)CC[C@H](NC(=O)CN2CCN(CC(=O)O)CCN(CC(=O)O)CCN(CC(=O)O)CC2)C(=O)NCCOCCOCCOCCOCCC(=O)N[C@@H](CCC(=O)NCCOCCOCCOCCOCCC(=O)NCCCC[C@@H]2NC(=O)[C@@H](Cc3ccccc3)NC(=O)[C@H](CC(=O)O)NC(=O)CNC(=O)[C@H](CCCNC(=N)N)NC2=O)C(=O)NCCOCCOCCOCCOCCC(=O)NCCCC[C@@H]2NC(=O)[C@@H](Cc3ccccc3)NC(=O)[C@H](CC(=O)O)NC(=O)CNC(=O)[C@H](CCCNC(=N)N)NC2=O)C(=O)NCCOCCOCCOCCOCCC(=O)NCCCC[C@@H]2NC(=O)[C@@H](Cc3ccccc3)NC(=O)[C@H](CC(=O)O)NC(=O)CNC(=O)[C@H](CCCNC(=N)N)NC2=O)NC(=O)[C@@H](Cc2ccccc2)NC(=O)[C@H](CC(=O)O)NC(=O)CNC1=O [indium-111 labelled] | female athymic nude mice, bone | intravenous, 3 µCi, 0.5 h, U-87 MG glioma xenograft | 1.27 ± 0.23
CC(C)C[C@H](NC(=O)[C@H](Cc1ccc(O)cc1)NC(=O)[C@@H](CCCNC(=N)N)NC(=O)[C@@H](CO)NC(=O)[C@H](Cc1ccccc1)NC(=O)[C@H](CC1CCCCC1)NC(=O)[C@H](CC(=O)O)NC(=O)CCC(C(=O)O)N1CCCN2CCN(CCCN(CC(=O)O)CC2)CC1)C(=O)N[C@@H](Cc1c[nH]c2ccccc12)C(=O)N[C@@H](CO)C(=O)O (stereo partly drawn) [copper-64 labelled] | female NMRI nude mice, lung | 1 h p.i. | 4.3 ± 0.7
N=C(N)NCCC[C@@H]1NC(=O)[C@H](CCCCNC(=O)CCOCCOCCOCCOCCNC(=O)CC[C@H](NC(=O)CCOCCOCCOCCOCCNC(=O)[C@H](CCCCNC(=O)c2ccc(NN)nc2)NC(=O)c2ccc(NN)nc2)C(=O)NCCOCCOCCOCCOCCC(=O)NCCCC[C@@H]2NC(=O)[C@@H](Cc3ccccc3)NC(=O)[C@H](CC(=O)O)NC(=O)CNC(=O)[C@H](CCCNC(=N)N)NC2=O)NC(=O)[C@@H](Cc2ccccc2)NC(=O)[C@H](CC(=O)O)NC(=O)CNC1=O [technetium-99m labelled] | female athymic nude mice, brain | intravenous, 0.1 MBq, 1 h, U-87 MG glioma xenograft | 0.14 ± 0.02
N=C(N)NCCC[C@@H]1NC(=O)[C@H](CCCCNC(=O)CC[C@H](NC(=O)CCOCCOCCOCCOCCNC(=O)CC[C@H](NC(=O)CN2CCN(CC(=O)O)CCN(CC(=O)O)CCN(CC(=O)O)CC2)C(=O)NCCOCCOCCOCCOCCC(=O)N[C@@H](CCC(=O)NCCCC[C@@H]2NC(=O)[C@@H](Cc3ccccc3)NC(=O)[C@H](CC(=O)O)NC(=O)CNC(=O)[C@H](CCCNC(=N)N)NC2=O)C(=O)NCCCC[C@@H]2NC(=O)[C@@H](Cc3ccccc3)NC(=O)[C@H](CC(=O)O)NC(=O)CNC(=O)[C@H](CCCNC(=N)N)NC2=O)C(=O)NCCCC[C@@H]2NC(=O)[C@@H](Cc3ccccc3)NC(=O)[C@H](CC(=O)O)NC(=O)CNC(=O)[C@H](CCCNC(=N)N)NC2=O)NC(=O)[C@@H](Cc2ccccc2)NC(=O)[C@H](CC(=O)O)NC(=O)CNC1=O [indium-111 labelled] | female athymic nude mice, brain | intravenous, 3 µCi, 4 h, U-87 MG glioma xenograft | 0.07 ± 0.03
N=C(N)NCCC[C@@H]1NC(=O)[C@H](CCCCNC(=O)CC[C@H](NC(=O)[C@H](CCCCNC(=O)c2ccc(NN)nc2)NC(=O)c2ccc(NN)nc2)C(=O)NCCCC[C@@H]2NC(=O)[C@@H](Cc3ccccc3)NC(=O)[C@H](CC(=O)O)NC(=O)CNC(=O)[C@H](CCCNC(=N)N)NC2=O)NC(=O)[C@@H](Cc2ccccc2)NC(=O)[C@H](CC(=O)O)NC(=O)CNC1=O [technetium-99m labelled] | female athymic nude mice, kidneys | intravenous, 0.1 MBq, 1 h, U-87 MG glioma xenograft | 12.2 ± 0.93
N=C(N)NCCC[C@@H]1NC(=O)[C@H](CCCCNC(=O)CC[C@H](NC(=O)CCOCCOCCOCCOCCNC(=O)CN2CCN(CC(=O)O)CCN(CC(=O)O)CCN(CC(=O)O)CC2)C(=O)NCCCC[C@@H]2NC(=O)[C@@H](Cc3ccccc3)NC(=O)[C@H](CC(=O)O)NC(=O)CNC(=O)[C@H](CCCNC(=N)N)NC2=O)NC(=O)[C@@H](Cc2ccccc2)NC(=O)[C@H](CC(=O)O)NC(=O)CNC1=O [indium-111 labelled] | female athymic nude mice, blood | intravenous, 3 µCi, 4 h, U-87 MG glioma xenograft | 0.22 ± 0.05
N=C(N)NCCC[C@@H]1NC(=O)[C@H](CCCCNC(=O)CCOCCOCCOCCOCCNC(=O)CC[C@H](NC(=O)[C@H](CCCCNC(=O)c2ccc(NN)nc2)NC(=O)c2ccc(NN)nc2)C(=O)NCCOCCOCCOCCOCCC(=O)NCCCC[C@@H]2NC(=O)[C@@H](Cc3ccccc3)NC(=O)[C@H](CC(=O)O)NC(=O)CNC(=O)[C@H](CCCNC(=N)N)NC2=O)NC(=O)[C@@H](Cc2ccccc2)NC(=O)[C@H](CC(=O)O)NC(=O)CNC1=O [technetium-99m labelled] | female athymic nude mice, eyes | intravenous, 0.1 MBq, 1 h, U-87 MG glioma xenograft | 1.27 ± 0.18
CSCC[C@H](NC(=O)[C@H](CC(C)C)NC(=O)[C@H](Cc1c[nH]cn1)NC(=O)CNC(=O)[C@@H](NC(=O)[C@H](C)NC(=O)[C@H](Cc1c[nH]c2ccccc12)NC(=O)[C@H](CCC(N)=O)NC(=O)CNC(=O)[C@H](CO)NC(=O)CNC(=O)CCCCCCCNC(=O)CCC(=O)Nc1ccc(CNC23CNCCNCC(N)(CNCCNC2)CNCCNC3)cc1)C(C)C)C(N)=O [copper-64 labelled] | female SCID mice, PC-3 xenograft, kidney | intravenous, 0.6 MBq, 24 h | 4.73 ± 0.198
N=C(N)NCCC[C@@H]1NC(=O)[C@H](CCCCNC(=O)CCOCCOCCOCCOCCNC(=O)CN2CCN(CC(=O)O)CCN(CC(=O)O)CCN(CC(=O)O)CC2)NC(=O)[C@@H](Cc2ccccc2)NC(=O)[C@H](CC(=O)O)NC(=O)CNC1=O [indium-111 labelled] | female athymic nude mice, brain | intravenous, 3 µCi, 4 h, U-87 MG glioma xenograft | 0.04 ± 0.01
CSCC[C@H](NC(=O)[C@H](CC(C)C)NC(=O)[C@H](Cc1c[nH]cn1)NC(=O)CNC(=O)[C@@H](NC(=O)[C@H](C)NC(=O)[C@H](Cc1c[nH]c2ccccc12)NC(=O)[C@H](CCC(N)=O)NC(=O)CCCCCCCNC(=O)CCC(=O)Nc1ccc(CNC23CNCCNCC(N)(CNCCNC2)CNCCNC3)cc1)C(C)C)C(N)=O [copper-64 labelled] | female SCID mice, PC-3 xenograft, spleen | intravenous, 0.6 MBq, 24 h | 0.97 ± 0.184
N=C(N)NCCC[C@@H]1NC(=O)[C@H](CCCCNC(=O)CNC(=O)CNC(=O)CNC(=O)CC[C@H](NC(=O)CNC(=O)CNC(=O)CNC(=O)[C@H](CCCCNC(=O)c2ccc(NN)nc2)NC(=O)c2ccc(NN)nc2)C(=O)NCC(=O)NCC(=O)NCC(=O)NCCCC[C@@H]2NC(=O)[C@@H](Cc3ccccc3)NC(=O)[C@H](CC(=O)O)NC(=O)CNC(=O)[C@H](CCCNC(=N)N)NC2=O)NC(=O)[C@@H](Cc2ccccc2)NC(=O)[C@H](CC(=O)O)NC(=O)CNC1=O [technetium-99m labelled] | female athymic nude mice, kidneys | intravenous, 0.1 MBq, 1 h, U-87 MG glioma xenograft | 8.49 ± 1.28
N=C(N)NCCC[C@H](NC(=O)[C@H](CCCCN)NC(=O)[C@H](CCC(N)=O)NC(=O)CCOCCOCCOCCNC(=O)CN1CCN(CC(=O)O)CCN(CC(=O)O)CCN(CC(=O)O)CC1)C(=O)N[C@@H](CCCCN)C(=O)N[C@@H](CCCNC(=N)N)C(=O)N[C@@H](CCCCN)C(=O)N[C@@H](CCCCN)C(=O)N[C@@H](CO)C(=O)N[C@@H](CCCNC(=N)N)C(=O)N[C@@H](Cc1ccc(O)cc1)C(=O)N[C@@H](CCCCN)C(=O)N[C@@H](CO)C(=O)O [copper-64 labelled] | C57BL/6 mice, B16-F10 tumour, liver | intravenous, 60 min | 3.93 ± 0.42

Some of these lines once more:
SMILES | system | conditions | tissue uptake [%ID/g]
N=C(N)NCCC[C@@H]1NC(=O)[C@H](CCCCNC(=O)CC[C@H](NC(=O)[C@H](CCCCNC(=O)c2ccc(NN)nc2)NC(=O)c2ccc(NN)nc2)C(=O)NCCCC[C@@H]2NC(=O)[C@@H](Cc3ccccc3)NC(=O)[C@H](CC(=O)O)NC(=O)CNC(=O)[C@H](CCCNC(=N)N)NC2=O)NC(=O)[C@@H](Cc2ccccc2)NC(=O)[C@H](CC(=O)O)NC(=O)CNC1=O [technetium-99m labelled] | female athymic nude mice, kidneys | intravenous, 0.1 MBq, 1 h, U-87 MG glioma xenograft | 12.2 ± 0.93
